Published values of several laboratories.
Each line is one published result; not all experiments were run side by side. Several values in a cell are separate wells, animals, samples, runs or records. Numbers after ± are the reported error.
Eif4e: Eukaryotic translation initiation factor 4E (Eif4e, Mus musculus, UniProt P63073)
UniProt P63073, sequence (whole entry, looked up): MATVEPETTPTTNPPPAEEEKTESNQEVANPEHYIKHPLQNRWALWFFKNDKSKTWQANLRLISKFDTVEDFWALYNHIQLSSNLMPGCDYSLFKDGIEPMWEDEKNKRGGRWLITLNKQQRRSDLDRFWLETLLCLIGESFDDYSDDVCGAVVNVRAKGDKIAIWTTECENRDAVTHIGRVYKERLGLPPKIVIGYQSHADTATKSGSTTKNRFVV
POLB: DNA polymerase beta (POLB, Homo sapiens, UniProt P06746)
UniProt P20248, sequence (whole entry, looked up): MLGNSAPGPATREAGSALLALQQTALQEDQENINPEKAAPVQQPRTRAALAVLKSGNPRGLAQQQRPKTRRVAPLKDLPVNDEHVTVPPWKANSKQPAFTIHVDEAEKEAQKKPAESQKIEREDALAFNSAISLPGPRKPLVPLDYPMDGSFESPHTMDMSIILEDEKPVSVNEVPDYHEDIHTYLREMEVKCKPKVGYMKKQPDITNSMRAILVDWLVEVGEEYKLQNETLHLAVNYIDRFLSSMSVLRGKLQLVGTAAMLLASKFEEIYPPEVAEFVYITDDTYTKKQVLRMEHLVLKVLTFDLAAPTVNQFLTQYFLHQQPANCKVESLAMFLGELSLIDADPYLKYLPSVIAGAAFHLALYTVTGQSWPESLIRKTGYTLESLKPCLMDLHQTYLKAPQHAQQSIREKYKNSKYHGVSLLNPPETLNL
UniProt Q8NEB9, sequence (whole entry, looked up): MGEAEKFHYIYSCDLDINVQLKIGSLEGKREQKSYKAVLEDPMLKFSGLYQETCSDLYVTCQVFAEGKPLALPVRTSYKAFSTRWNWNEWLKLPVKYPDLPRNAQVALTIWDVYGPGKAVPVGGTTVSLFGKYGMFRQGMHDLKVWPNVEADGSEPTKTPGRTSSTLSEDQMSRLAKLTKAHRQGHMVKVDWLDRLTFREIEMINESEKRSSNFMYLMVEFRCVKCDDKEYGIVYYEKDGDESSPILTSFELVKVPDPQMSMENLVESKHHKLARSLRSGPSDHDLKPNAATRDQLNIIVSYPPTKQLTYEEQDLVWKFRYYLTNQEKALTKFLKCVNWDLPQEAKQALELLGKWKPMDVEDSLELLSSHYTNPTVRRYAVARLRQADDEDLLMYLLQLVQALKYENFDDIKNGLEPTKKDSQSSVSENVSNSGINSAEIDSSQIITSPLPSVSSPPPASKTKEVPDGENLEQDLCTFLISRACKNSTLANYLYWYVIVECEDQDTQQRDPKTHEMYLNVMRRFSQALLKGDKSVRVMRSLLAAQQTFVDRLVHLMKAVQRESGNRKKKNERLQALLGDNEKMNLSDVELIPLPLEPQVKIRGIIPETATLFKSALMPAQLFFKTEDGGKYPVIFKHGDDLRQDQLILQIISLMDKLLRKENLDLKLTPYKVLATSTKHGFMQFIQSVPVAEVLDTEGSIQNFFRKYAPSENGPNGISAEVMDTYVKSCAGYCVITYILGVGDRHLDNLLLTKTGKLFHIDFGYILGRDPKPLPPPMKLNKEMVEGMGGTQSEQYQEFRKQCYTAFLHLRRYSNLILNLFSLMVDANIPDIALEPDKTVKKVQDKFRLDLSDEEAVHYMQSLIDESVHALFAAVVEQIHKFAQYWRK
UniProt Q9Y478, sequence (whole entry, unmodified, looked up): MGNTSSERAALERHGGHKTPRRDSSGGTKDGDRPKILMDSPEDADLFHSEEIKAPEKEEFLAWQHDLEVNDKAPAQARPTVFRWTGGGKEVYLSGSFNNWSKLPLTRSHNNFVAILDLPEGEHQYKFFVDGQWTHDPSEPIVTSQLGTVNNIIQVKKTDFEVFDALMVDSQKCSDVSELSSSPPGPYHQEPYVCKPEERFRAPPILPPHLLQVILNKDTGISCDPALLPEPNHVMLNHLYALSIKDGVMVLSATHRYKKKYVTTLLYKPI
UniProt P10145, sequence (whole entry, looked up): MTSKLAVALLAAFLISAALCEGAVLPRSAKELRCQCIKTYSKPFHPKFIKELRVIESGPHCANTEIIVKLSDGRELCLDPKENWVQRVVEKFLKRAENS
UniProt O00214, sequence (whole entry, looked up): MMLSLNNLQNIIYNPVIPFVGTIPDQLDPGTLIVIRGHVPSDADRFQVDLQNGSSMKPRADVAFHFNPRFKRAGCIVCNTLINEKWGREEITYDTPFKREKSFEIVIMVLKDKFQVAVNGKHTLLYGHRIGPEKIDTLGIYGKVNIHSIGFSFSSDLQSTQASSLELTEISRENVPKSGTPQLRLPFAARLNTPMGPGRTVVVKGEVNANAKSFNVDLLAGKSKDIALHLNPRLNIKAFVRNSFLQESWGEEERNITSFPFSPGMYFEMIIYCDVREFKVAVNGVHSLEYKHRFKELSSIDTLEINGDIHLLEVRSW
UniProt Q06124, sequence (whole entry, looked up): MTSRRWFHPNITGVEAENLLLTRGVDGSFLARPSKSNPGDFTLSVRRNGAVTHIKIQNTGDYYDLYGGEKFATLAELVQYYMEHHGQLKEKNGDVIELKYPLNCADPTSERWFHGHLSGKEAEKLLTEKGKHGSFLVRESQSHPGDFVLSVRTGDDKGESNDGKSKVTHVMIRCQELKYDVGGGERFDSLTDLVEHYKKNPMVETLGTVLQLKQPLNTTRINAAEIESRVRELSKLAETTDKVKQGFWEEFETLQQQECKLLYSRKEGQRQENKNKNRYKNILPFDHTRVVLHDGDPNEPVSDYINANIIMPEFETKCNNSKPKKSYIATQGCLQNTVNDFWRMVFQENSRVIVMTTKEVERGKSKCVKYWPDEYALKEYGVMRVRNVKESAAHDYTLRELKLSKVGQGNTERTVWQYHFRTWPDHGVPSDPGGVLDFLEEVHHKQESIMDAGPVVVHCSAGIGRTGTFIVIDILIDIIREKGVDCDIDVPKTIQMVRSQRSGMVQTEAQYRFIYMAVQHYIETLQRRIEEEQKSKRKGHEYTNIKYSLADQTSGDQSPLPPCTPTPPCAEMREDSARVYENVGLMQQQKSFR
UniProt P54646, sequence (whole entry, unmodified, looked up): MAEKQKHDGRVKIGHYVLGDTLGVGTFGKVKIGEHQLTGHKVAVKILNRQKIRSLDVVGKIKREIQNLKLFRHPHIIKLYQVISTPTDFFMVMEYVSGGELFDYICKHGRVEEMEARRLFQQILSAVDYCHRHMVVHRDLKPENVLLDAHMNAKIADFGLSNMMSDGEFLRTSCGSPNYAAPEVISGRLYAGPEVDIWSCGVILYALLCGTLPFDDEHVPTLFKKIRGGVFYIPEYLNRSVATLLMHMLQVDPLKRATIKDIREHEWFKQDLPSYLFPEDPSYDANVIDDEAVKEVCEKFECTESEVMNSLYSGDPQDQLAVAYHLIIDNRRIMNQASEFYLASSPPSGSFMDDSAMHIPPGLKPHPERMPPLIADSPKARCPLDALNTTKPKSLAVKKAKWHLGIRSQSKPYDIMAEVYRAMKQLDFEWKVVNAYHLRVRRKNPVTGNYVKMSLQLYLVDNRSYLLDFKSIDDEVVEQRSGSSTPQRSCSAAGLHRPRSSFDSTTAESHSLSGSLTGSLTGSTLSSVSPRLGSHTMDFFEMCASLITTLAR
UniProt Q9UM07, sequence (whole entry, looked up): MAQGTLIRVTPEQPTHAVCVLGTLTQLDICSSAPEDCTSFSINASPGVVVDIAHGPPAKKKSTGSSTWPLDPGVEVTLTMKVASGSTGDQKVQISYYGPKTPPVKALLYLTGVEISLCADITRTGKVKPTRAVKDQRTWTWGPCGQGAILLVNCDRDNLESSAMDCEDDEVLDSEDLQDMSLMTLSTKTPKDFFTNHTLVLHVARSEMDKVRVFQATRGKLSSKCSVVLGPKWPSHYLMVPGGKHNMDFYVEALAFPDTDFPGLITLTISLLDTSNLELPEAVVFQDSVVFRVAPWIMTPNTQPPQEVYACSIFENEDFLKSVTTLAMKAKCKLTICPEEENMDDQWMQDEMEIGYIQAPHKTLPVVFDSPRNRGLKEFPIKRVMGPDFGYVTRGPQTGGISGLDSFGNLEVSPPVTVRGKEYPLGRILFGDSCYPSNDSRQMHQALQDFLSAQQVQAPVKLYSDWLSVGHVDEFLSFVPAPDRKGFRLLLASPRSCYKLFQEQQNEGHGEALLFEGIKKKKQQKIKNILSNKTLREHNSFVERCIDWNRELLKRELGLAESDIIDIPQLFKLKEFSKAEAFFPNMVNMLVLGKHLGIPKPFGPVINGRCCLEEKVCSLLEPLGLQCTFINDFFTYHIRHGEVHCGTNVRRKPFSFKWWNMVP
UniProt A0A109QYD3, sequence (whole entry, unmodified, looked up): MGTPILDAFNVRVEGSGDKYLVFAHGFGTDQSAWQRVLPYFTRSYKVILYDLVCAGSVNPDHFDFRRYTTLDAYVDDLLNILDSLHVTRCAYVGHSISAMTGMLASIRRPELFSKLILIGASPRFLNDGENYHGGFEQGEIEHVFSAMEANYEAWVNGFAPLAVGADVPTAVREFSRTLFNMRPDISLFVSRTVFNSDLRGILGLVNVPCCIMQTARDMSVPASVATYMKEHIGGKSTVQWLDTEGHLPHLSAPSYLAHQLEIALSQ

SMILES | target | assay | test system | conditions | Kd
Nc1nc2c(ncn2[C@H]2C[C@H](O)[C@@H](COP(=O)(O)OP(=O)(O)[C@@H](F)P(=O)(O)O)O2)c(=O)[nH]1 | DNA polymerase beta (POLB, Homo sapiens, UniProt P06746, R183A) | substrate, pre-steady-state kinetics |  | incorporation opposite dC in gapped DNA | 39 ± 8 µM
O=P(O)(O)O[C@@H]1[C@@H](O)[C@H](O)[C@H](O)[C@H](O)[C@H]1OP(=O)(O)O | Inositol 1,4,5-trisphosphate-gated calcium channel ITPR1, N-terminal region (Itpr1, Rattus norvegicus, UniProt P29994, del318-332) | [3H]IP3 competition binding | N-terminal fragment | cytosol-like medium | 3.43 µM
CC[C@H](C)[C@@H]1NC(=O)[C@H](C)NC(=O)[C@H](C)NC(=O)[C@H]([C@@H](C)O)NC(=O)[C@H](Cc2ccccc2)NC(=O)[C@@H]2CSSC[C@@H]3NC(=O)[C@H](C(C)C)NC(=O)[C@H](CCCCN)NC(=O)[C@H](CO)NC(=O)[C@H](CCCCN)NC(=O)[C@@H]4CSSC[C@H](NC(=O)[C@H](CO)NC(=O)[C@H](CCC(=O)O)NC(=O)CNC(=O)[C@H](CSSC[C@H](NC(=O)CNC1=O)C(=O)N[C@@H](CO)C(=O)N4)NC(=O)[C@@H]1CCCN1C(=O)[C@H](Cc1ccccc1)NC(=O)CNC(=O)[C@H](CC(N)=O)NC(=O)[C@H](CCCCN)NC(=O)[C@H](Cc1ccc(O)cc1)NC3=O)C(=O)N[C@@H](C(C)C)C(=O)N[C@@H](Cc1ccc(O)cc1)C(=O)N[C@@H](C)C(=O)N1CCC[C@H]1C(=O)N2 | POPC/POPE lipid membrane | membrane binding, surface plasmon resonance | POPC/POPE 80:20 vesicles | pH 7.4 | 21.5 ± 0.45 µM
CC(=O)N[C@@H]1[C@@H](O[C@@H]2O[C@H](C(=O)O)[C@@H](O[C@@H]3O[C@H](COS(=O)(=O)O)[C@@H](OS(=O)(=O)O)[C@H](O[C@@H]4O[C@H](C(=O)O)[C@@H](OS(=O)(=O)O)[C@H](OS(=O)(=O)O)[C@H]4OS(=O)(=O)O)[C@H]3NC(C)=O)[C@H](OS(=O)(=O)O)[C@H]2OS(=O)(=O)O)[C@H](OS(=O)(=O)O)[C@@H](COS(=O)(=O)O)O[C@H]1SCCOCCOCCSSCCOCCOCCS[C@@H]1O[C@H](COS(=O)(=O)O)[C@@H](OS(=O)(=O)O)[C@H](O[C@@H]2O[C@H](C(=O)O)[C@@H](O[C@@H]3O[C@H](COS(=O)(=O)O)[C@@H](OS(=O)(=O)O)[C@H](O[C@@H]4O[C@H](C(=O)O)[C@@H](OS(=O)(=O)O)[C@H](OS(=O)(=O)O)[C@H]4OS(=O)(=O)O)[C@H]3NC(C)=O)[C@H](OS(=O)(=O)O)[C@H]2OS(=O)(=O)O)[C@H]1NC(C)=O | Interleukin-8 (CXCL8, Homo sapiens, UniProt P10145) | ligand displacement, FP |  |  | 0.012 µM
COc1ccc(CNc2nc3c(c(=O)[nH]2)[n+](C)cn3C2OC(COP(=O)(O)OP(=O)([O-])OP(=O)(O)OCC3OC(n4cnc5c(=O)[nH]c(N)nc54)C(O)C3O)C(O)C2O)cc1 (stereo not drawn) | Eif4e | differential scanning fluorimetry |  |  | 6.26 µM
CC[C@H](C)[C@H](NC(=O)[C@H](CC(C)C)NC(=O)[C@H](CCCNC(=N)N)NC(=O)c1ccc(CN2CCN(C)CC2)cc1)C(=O)N[C@@H](Cc1ccccc1)C(N)=O | Cyclin-A2 (CCNA2, Homo sapiens, UniProt P20248) | binding, tryptophan fluorescence titration |  | co-expressed with DnaK-DnaJ-GrpE | > 6.5 µM and 6.59 µM
CC(C)CCCC(C)C1CCC2C3CC=C4CC(OC(=O)CCC(=O)NCCCCCCNc5ncnc6c5ncn6[C@@H]5O[C@H](COP(=O)(O)OP(=O)([O-])OP(=O)(O)OC[C@H]6O[C@@H](n7c[n+](C)c8c(O)nc(N)nc87)[C@H](O)[C@@H]6O)[C@@H](O)[C@H]5O)CCC4(C)C3CCC12C (stereo partly drawn) | Eif4e | cap analogue binding, pyrene fluorescence competition |  | 20 °C | 0.051 µM
Cc1cn(C2CC(O)C(COP(=O)(O)OP(=O)(O)C(F)(Cl)P(=O)(O)O)O2)c(=O)[nH]c1=O (mixture of isomers) | POLB | dNTP binding, substrate, single-turnover kinetics | single-nucleotide gapped DNA | 37 °C, wild type, correct incorporation, with: dTTP opposite template A | 27.5 ± 6.1 µM
CC[C@H](C)[C@@H]1NC(=O)[C@H](C)NC(=O)[C@H](C)NC(=O)[C@H]([C@@H](C)O)NC(=O)[C@H](Cc2ccccc2)NC(=O)[C@@H]2CSSC[C@@H]3NC(=O)[C@H](C(C)C)NC(=O)[C@H](CCCCN)NC(=O)[C@H](CO)NC(=O)[C@H](CCCCN)NC(=O)[C@@H]4CSSC[C@H](NC(=O)[C@H](CO)NC(=O)[C@H](CCC(=O)O)NC(=O)CNC(=O)[C@H](CSSC[C@H](NC(=O)CNC1=O)C(=O)N[C@@H](CO)C(=O)N4)NC(=O)[C@@H]1CCCN1C(=O)[C@H](C)NC(=O)CNC(=O)[C@H](CC(N)=O)NC(=O)[C@H](CCCCN)NC(=O)[C@H](Cc1ccc(O)cc1)NC3=O)C(=O)N[C@@H](C(C)C)C(=O)N[C@@H](Cc1ccc(O)cc1)C(=O)N[C@@H](CC(C)C)C(=O)N1CCC[C@H]1C(=O)N2 | POPC/POPE lipid membrane | membrane binding, surface plasmon resonance | POPC/POPE 80:20 vesicles | pH 7.4 | 13.1 ± 0.88 µM
COc1cc(C(=O)N2CC[C@@H](O)[C@@H](N)C2)cc2nc(-c3cc4cccnc4n3CC3CC3)n(C)c12 | PADI4 (Homo sapiens, UniProt Q9UM07) | surface plasmon resonance |  |  | 0.469 µM
Cc1ccc(Oc2nc3cc(-c4ccc5c(ccn5C)c4)c(Cl)cc3[nH]2)cc1C(=O)O | PRKAA2/PRKAB1, phosphorylated; with gamma1 (Homo sapiens, UniProt P54646+Q9Y478, R83A) | biolayer interferometry |  | AMPK complex α2β1(R83A)γ1 | 1.57 µM
CNCCNC(=O)CN1C(=O)Cc2c([nH]c3ccc(Br)cc23)-c2ccc(Cl)cc21 | Trypanothione synthetase (Leishmania infantum, UniProt A4I2Z3) | isothermal titration calorimetry |  | with: ADP 2 mM | 0.052 µM
NS(=O)(=O)c1c(F)c(F)c(S(=O)(=O)CCc2ccccc2)c(N2CCOCC2)c1F | CA2 (Homo sapiens, UniProt P00918, A65S/F130A/I91T/L203N/N67K/V134S) |  |  | pH 7 | 0.45 µM
CO[C@@H]1[C@H](O)[C@@H](COP(=O)(O)OP(=O)([O-])C(F)(F)P(=O)(O)OP(=O)(O)OC[C@H]2O[C@@H](n3cnc4c(=O)[nH]c(N)nc43)[C@H](O)[C@@H]2O)O[C@H]1n1c[n+](C)c2c(O)nc(N)nc21 | Eukaryotic translation initiation factor 4E, residues 28-217 (Eif4e, Mus musculus, UniProt P63073) | binding, fluorescence quenching titration |  | pH 7.2, 20 °C | 0.02 µM
Cc1cc(NCCOC(C)C)c2nc(N3CCOC[C@H]3C)cc(=O)n2c1 | PIK3C3 (Homo sapiens, UniProt Q8NEB9) | binding, SPR |  |  | 0.0219 µM
OC[C@H]1Oc2c(Cc3ccccc3)c(Cc3ccccc3)cc3c2[C@@H](OC3)[C@H]1O | Galectin-8 (LGALS8, Homo sapiens, UniProt O00214) | cell-free assay, FP |  |  | 1500 µM
Nc1nc2c(ncn2[C@H]2C[C@H](O)[C@@H](COP(=O)(O)OP(=O)(O)C(Br)(Br)P(=O)(O)O)O2)c(=O)[nH]1 | POLB | nucleotide binding, substrate, single turnover kinetics |  | 37 °C, dG misincorporation opposite A | 67 ± 17 µM
CC1=C[C@H](O/C=C2/C(=O)O[C@@H]3c4ccccc4C[C@H]23)OC1=O (racemic) | RMS3 (Lathyrus oleraceus, UniProt A0A109QYD3, S96C) | binding, fluorescence |  |  | 154 µM
CCOc1ccc(-c2nc3cc(-c4nc5cc(N6CCN(C)CC6)ccc5[nH]4)ccc3[nH]2)cc1 | HIV-1 SL2 RNA stem-loop | binding, ESI-FTMS titration |  | pH 7.5 | 99.9 ± 12.5 µM
Cc1cn(C2CC(O)C(COP(=O)(O)OP(=O)(O)C(F)P(=O)(O)O)O2)c(=O)[nH]c1=O (mixture of isomers) | POLB | dNTP binding, substrate, single-turnover kinetics | single-nucleotide gapped DNA | 37 °C, wild type, correct incorporation, with: dTTP opposite template A | 83.6 ± 9.2 µM
CC1(CN)CCN(c2cnc(Sc3cccc(Cl)c3Cl)c(N)n2)CC1 | PTPN11 (Homo sapiens, UniProt Q06124) | binding, ITC |  |  | 0.15 µM

Some of these lines once more:
SMILES | target | assay | test system | conditions | Kd
Cc1cn(C2CC(O)C(COP(=O)(O)OP(=O)(O)C(F)(Cl)P(=O)(O)O)O2)c(=O)[nH]c1=O (mixture of isomers) | POLB | dNTP binding, substrate, single-turnover kinetics | single-nucleotide gapped DNA | 37 °C, wild type, correct incorporation, with: dTTP opposite template A | 27.5 ± 6.1 µM
CC[C@H](C)[C@@H]1NC(=O)[C@H](C)NC(=O)[C@H](C)NC(=O)[C@H]([C@@H](C)O)NC(=O)[C@H](Cc2ccccc2)NC(=O)[C@@H]2CSSC[C@@H]3NC(=O)[C@H](C(C)C)NC(=O)[C@H](CCCCN)NC(=O)[C@H](CO)NC(=O)[C@H](CCCCN)NC(=O)[C@@H]4CSSC[C@H](NC(=O)[C@H](CO)NC(=O)[C@H](CCC(=O)O)NC(=O)CNC(=O)[C@H](CSSC[C@H](NC(=O)CNC1=O)C(=O)N[C@@H](CO)C(=O)N4)NC(=O)[C@@H]1CCCN1C(=O)[C@H](C)NC(=O)CNC(=O)[C@H](CC(N)=O)NC(=O)[C@H](CCCCN)NC(=O)[C@H](Cc1ccc(O)cc1)NC3=O)C(=O)N[C@@H](C(C)C)C(=O)N[C@@H](Cc1ccc(O)cc1)C(=O)N[C@@H](CC(C)C)C(=O)N1CCC[C@H]1C(=O)N2 | POPC/POPE lipid membrane | membrane binding, surface plasmon resonance | POPC/POPE 80:20 vesicles | pH 7.4 | 13.1 ± 0.88 µM
COc1cc(C(=O)N2CC[C@@H](O)[C@@H](N)C2)cc2nc(-c3cc4cccnc4n3CC3CC3)n(C)c12 | PADI4 (Homo sapiens, UniProt Q9UM07) | surface plasmon resonance |  |  | 0.469 µM
